Experimental data gathered from unrelated publications.
Lines come from different studies, so protocols differ. Values joined by “and” are separate records of one study, mostly repeats; a detail may differ. ± marks the error that the study gave. Values after ≈ are worked out from the molar mass of the structure shown.

For `COC1C=COC2(C)Oc3c(C)c(O)c4c(c3C2=O)C2=NC3(CCN(CC(C)C)CC3)NC2=C(NC(=O)C(C)=CC=CC(C)C(O)C(C)C(O)C(C)C(OC(=O)Nc2cnccn2)C1C)C4=O` (stereo not shown), the IC50 was 12 nM (Mycobacteroides abscessus; bacterial growth; subsp. abscessus M9 clinical isolate).
With `Cc1cc(N2CC[C@@](C#N)(C3(C)CC3)C2=O)cc(C(=O)NCc2cc(F)cc(-c3cnn(C)c3)c2)n1` the IC50 was 7 to 15 nM (Plasmodium falciparum; ex vivo drug susceptibility; clinical field isolates).
`Nc1nc(-c2ccncc2)nc2[nH]nc(Nc3ccc(F)cc3)c12` has an IC50 of 8690 nM (rhinovirus B48; viral cytopathic effect; HeLa).
`O=C(NCc1cccc(Cl)c1)c1ccc(C2CCCCC2)cc1` has a hepatic clearance of 82 mL/min/kg (liver microsome stability; mouse liver microsomes; 1 µM).
For `CNCc1ccc2c(c1)C[C@H](CNC(=N)N)[C@H]2NC(=O)C(=O)Nc1ccc(Cl)c(F)c1`, the IC50 was 4540 nM (HIV-1; pseudovirus infection, Env pseudovirus neutralisation; TZM-bl, clade C).
`CC(=O)O[C@@H]1[C@@H](OC(C)=O)[C@H](Sc2sc(C(=O)c3ccc(Br)cc3)c(N)c2-c2nc3ccccc3s2)OC[C@@H]1OC(C)=O` has a viral reduction of 40% (herpes simplex virus 1; plaque reduction; non-toxic dose NG, mean over three titres).
`O=C(Nn1c(-c2cccc(Cl)c2)nc2ccccc2c1=O)c1ccccc1` has an IC50 of 2720 ± 210 nM (Fasciola hepatica; motility, ex vivo; adult flukes).
`CCCCNCCO.O=C(O)C(Cl)Cl` gave an inhibition of 0% (Solanum nigrum; herbicidal activity; 15 mg/mL, 21 days, post-emergence greenhouse).
`O=C(Nc1ccc(C2CCCCC2)cc1)C1(N2CCOCC2)CC1` gave a hepatic clearance of 81 mL/min/kg (liver microsome stability; mouse liver microsomes; 1 µM).
`Cc1cc(Cl)cc(S(C)=NC#N)c1NC(=O)c1cc(Br)nn1-c1ncccc1Cl` (stereo not shown) — result for “corrected larval mortality”: 86.8% (Spodoptera litura; Brassica oleracea field; 50 ppm, 168 h, 10% wettable powder).
`C=C(NC(=O)c1csc(-c2nc3c(cc2O)-c2nc(cs2)C(=O)NC(C(C)O)C(=O)NC(=C(C)OC)c2nc(cs2)C(=O)NC2c4nc(cs4)C(=O)NC(COC(=O)c4c5c6c(cccc6n4O)COC(=O)C(OC4CC(C)(O)C(N(C)C)C(C)O4)C2OC5)c2nc-3cs2)n1)C(N)=O` (stereo not shown) gave an MIC50 of 0.0078 µg/mL (≈ 0.00543 µM) (Streptococcus pneumoniae).
For `CCCCCCCCCC(=O)N[C@@H](Cc1c[nH]c2ccccc12)C(=O)N[C@H](CC(N)=O)C(=O)N[C@@H](CC(=O)O)C(=O)N[C@@H]1C(=O)NCC(=O)N[C@@H](CCCNC(=O)OC2/C=C/CCCCC2)C(=O)N[C@@H](CC(=O)O)C(=O)N[C@H](C)C(=O)N[C@@H](CC(=O)O)C(=O)NCC(=O)N[C@H](CO)C(=O)N[C@@H]([C@H](C)CC(=O)O)C(=O)N[C@@H](CC(=O)c2ccccc2N)C(=O)O[C@@H]1C` (stereo partly shown), “peak heat flow” read 0 µW (Staphylococcus aureus; planktonic bacterial growth, isothermal microcalorimetry; MRSA; 1.5 µg/mL, 24 h, 37 °C).
For `C[C@@H]1C(=O)O[C@@H](C)/C=C/C=C\[C@@H](C)[C@@H]2C=C[C@@H]3C[C@@]4(C)O[C@H]4[C@@H](C)[C@H]3[C@@H]2C(=O)C(Cl)(Cl)C1=O`, the MIC was 0.05 µg/mL (≈ 0.101 µM) (Staphylococcus aureus; MSSA clinical isolate; resistant PEN/CLI/ERY/SXT).
The FIC index of `c1ccc(CN2CCOCCOCCN(CCCCCCCCCCN3CCOCCOCCN(CCCCCCCCCCN4CCOCCOCCN(Cc5ccccc5)CCOCCOCC4)CCOCCOCC3)CCOCCOCC2)cc1` is reported as 1 (Klebsiella pneumoniae; ATCC BAA-2146; 2.5 µM, added: tetracycline).
Under “female worms recovered”, `CC(C)(C)NCC(SS(=O)(=O)O)c1ccccc1` (stereo not shown) is recorded as 11 worms per mouse and 19 worms per mouse and 15 worms per mouse and 16 worms per mouse (Schistosoma mansoni; mice; 600 mg/kg single dose, dosed day 7, perfused 52).
With `c1ccc(CN2CCOCCOCCN(CCCCCCCCN3CCOCCOCCN(CCCCCCCCN4CCOCCOCCN(Cc5ccccc5)CCOCCOCC4)CCOCCOCC3)CCOCCOCC2)cc1` the fold enhancement was 1 fold (Klebsiella pneumoniae; tetracycline activity; ATCC BAA-2146; 2.5 µM, added: tetracycline; baseline: tetracycline alone).
For `CSc1ccc(Nc2n[nH]c3nc(-c4ccccc4)nc(N)c23)cc1`, the IC50 was 100 nM (rhinovirus B48; viral cytopathic effect; HeLa).
Under “lung mycoplasma count”, `C=C[C@]1(C)C[C@@H](OC(=O)CSc2ccc(NC(=O)c3ccco3)cc2)[C@]2(C)[C@H](C)CC[C@]3(CCC(=O)[C@H]32)[C@@H](C)[C@@H]1O` is recorded as 4.86 log10 CFU/mL and 5.07 log10 CFU/mL and 4.89 log10 CFU/mL and 5.65 log10 CFU/mL and 5.2 log10 CFU/mL and 4.35 log10 CFU/mL and 3.99 log10 CFU/mL (Mycoplasma gallisepticum; infected chickens, lung; intramuscular, 30 mg/kg daily x3, 72 h).
For `CC1(C)[C@H](NC(=O)/C(=N\OCC(=O)N2CCC(C(=O)O)CC2)c2csc(N)n2)C(=O)N1OS(=O)(=O)O`, the MIC was 4 µg/mL (≈ 7.29 µM) (Enterobacter aerogenes; agar dilution; ATCC 13048, susceptible).
`COC1C=COC2(C)Oc3c(C)c(O)c4c(c3C2=O)C2=NC3(CCN(CC(C)C)CC3)NC2=C(NC(=O)C(C)=CC=CC(C)C(O)C(C)C(O)C(C)C(OC(=O)Nc2cccnn2)C1C)C4=O` (stereo not shown) has an MIC90 of 400 µM (≈ 370 µg/mL) (Mycobacteroides abscessus; clinical isolates; 90% isolates inhibited).
The IC50 of `Cc1ccc(Nc2n[nH]c3nc(-c4ccccc4)nc(N)c23)cc1` is reported as 30 nM (rhinovirus B48; viral cytopathic effect; HeLa).
`CC1(C)[C@H](NC(=O)/C(=N\OC2(C(=O)O)CC2)c2nsc(N)n2)C(=O)N1OS(=O)(=O)O` gave an MIC of 1 µg/mL (≈ 2.15 µM) (Enterobacter aerogenes; agar dilution; ATCC 13048, susceptible).
The IC50 of `Nc1nc(-c2ccccc2)nc2[nH]nc(Nc3ccc(OC(F)(F)F)cc3)c12` is reported as 1500 nM (rhinovirus B48; viral cytopathic effect; HeLa).
`CCOC(=O)c1cc(-c2nc3ccccc3s2)c(=O)n(NS(=O)(=O)c2ccccc2)c1N` has a plaque reduction of 0% (herpes simplex virus 1; viral replication, plaque; Vero; non-toxic dose, mean of three titres).
The germination rate of `Cc1cccc2c1N(C(=O)n1ccnn1)CC2` is reported as 67.9% and 77.4% and 75.6% and 78.9% and 7.5% and 80.6% (Arabidopsis thaliana; wild type, seeds; 10 µM, high ambient temperature).
`Nc1nc(-c2ccccc2)nc2[nH]nc(Nc3c(F)cccc3F)c12` has an IC50 of 7760 nM (rhinovirus B48; viral cytopathic effect; HeLa).
With `CC[C@H](C)CCCCC(=O)N[C@@H](CCN)C(=O)N[C@H](C(=O)N[C@@H](CCN)C(=O)N[C@H]1CCNC(=O)[C@H]([C@@H](C)O)NC(=O)[C@H](CCN)NC(=O)[C@H](CCN)NC(=O)[C@H](CC(C)C)NC(=O)[C@@H](CC(C)C)NC(=O)[C@H](CCN)NC1=O)[C@@H](C)O` the bacterial load was 8.3 log CFU and 8.38 log CFU and 8.56 log CFU and 7.68 log CFU (Klebsiella pneumoniae; BAA-2784, BALB/c mouse peritonitis, spleen; dose not given).
Under MDA content, `C=C1C(=O)OC2C1CCC(C)(O)C13C=CC(C)(C21)C1(C3)C(=O)OC2C3C(C)C(=O)CC3C(=C)CC(OC(C)=O)C21` (stereo not shown) is recorded as “decreased” (Danio rerio; concentration not given, HFD-fed larvae NAFLD model).
For `Nc1nc(-c2ccccc2)nc2[nH]nc(Nc3ccccc3F)c12`, the IC50 was 60 nM (rhinovirus B48; viral cytopathic effect; HeLa).
For `CC1(C)[C@H](NC(=O)/C(=N\OCCN)c2csc(N)n2)C(=O)N1OS(=O)(=O)O`, the MIC was 2 µg/mL (≈ 4.73 µM) (Enterobacter aerogenes; agar dilution; ATCC 13048, susceptible).
With `c1ccc(CN2CCOCCOCCN(CCCCCCCCCCCCCCN3CCOCCOCCN(CCCCCCCCCCCCCCN4CCOCCOCCN(Cc5ccccc5)CCOCCOCC4)CCOCCOCC3)CCOCCOCC2)cc1` the FIC index was 0.85 (Klebsiella pneumoniae; ATCC BAA-2146; half MIC, added: ciprofloxacin).
For `Cc1ccc(Nc2n[nH]c3nc(-c4cccc(F)c4)nc(N)c23)cc1`, the IC50 was 370 nM (rhinovirus B48; viral cytopathic effect; HeLa).
`CC(=O)O[C@@H]1[C@@H](OC(C)=O)[C@H](Sc2sc(C(=O)c3ccc(C)cc3)c(N)c2-c2nc3ccccc3s2)OC[C@H]1OC(C)=O` has a viral reduction of 16.7% (herpes simplex virus 1; plaque reduction; non-toxic dose NG, mean over three titres).
`Cc1cccc(-c2nc(N)c3c(Nc4ccc(F)cc4)n[nH]c3n2)c1` has an IC50 of 5250 nM (rhinovirus B48; viral cytopathic effect; HeLa).
With `CCCC(=O)C#Cc1ccc(F)c(F)c1` the mRNA level was 52% (Pseudomonas aeruginosa; RT-qPCR, item: phzC1; biofilm cells; 10 µM, 24 h; baseline: untreated).
`CC(O)CNCC(C)O.O=C(O)C(Cl)Cl` (stereo not shown) gave an inhibition of 0% (Solanum nigrum; herbicidal activity; 15 mg/mL, 21 days, post-emergence greenhouse).
The MIC of `CC1C=CC=CC(C)C2C=CC3CC(C)(O)C(Cl)C(C)C3C2C(=O)C(Cl)(Cl)C(=O)C(C)C(=O)O1` (stereo not shown) is reported as 0.025 µg/mL (≈ 0.047 µM) (Staphylococcus aureus; MSSA clinical isolate; resistant: CIP,DAP,MXF).

Repeated from above:
For `CSc1ccc(Nc2n[nH]c3nc(-c4ccccc4)nc(N)c23)cc1`, the IC50 was 100 nM (rhinovirus B48; viral cytopathic effect; HeLa).
Under “lung mycoplasma count”, `C=C[C@]1(C)C[C@@H](OC(=O)CSc2ccc(NC(=O)c3ccco3)cc2)[C@]2(C)[C@H](C)CC[C@]3(CCC(=O)[C@H]32)[C@@H](C)[C@@H]1O` is recorded as 4.86 log10 CFU/mL and 5.07 log10 CFU/mL and 4.89 log10 CFU/mL and 5.65 log10 CFU/mL and 5.2 log10 CFU/mL and 4.35 log10 CFU/mL and 3.99 log10 CFU/mL (Mycoplasma gallisepticum; infected chickens, lung; intramuscular, 30 mg/kg daily x3, 72 h).
For `CC1(C)[C@H](NC(=O)/C(=N\OCC(=O)N2CCC(C(=O)O)CC2)c2csc(N)n2)C(=O)N1OS(=O)(=O)O`, the MIC was 4 µg/mL (≈ 7.29 µM) (Enterobacter aerogenes; agar dilution; ATCC 13048, susceptible).
`COC1C=COC2(C)Oc3c(C)c(O)c4c(c3C2=O)C2=NC3(CCN(CC(C)C)CC3)NC2=C(NC(=O)C(C)=CC=CC(C)C(O)C(C)C(O)C(C)C(OC(=O)Nc2cccnn2)C1C)C4=O` (stereo not shown) has an MIC90 of 400 µM (≈ 370 µg/mL) (Mycobacteroides abscessus; clinical isolates; 90% isolates inhibited).
